Results of several laboratories.
Each line is one published result; not all experiments were run side by side.
ATR: Serine/threonine-protein kinase ATR (ATR, Homo sapiens, UniProt Q13535)
Sequence of UniProt Q13535 (whole entry, looked up): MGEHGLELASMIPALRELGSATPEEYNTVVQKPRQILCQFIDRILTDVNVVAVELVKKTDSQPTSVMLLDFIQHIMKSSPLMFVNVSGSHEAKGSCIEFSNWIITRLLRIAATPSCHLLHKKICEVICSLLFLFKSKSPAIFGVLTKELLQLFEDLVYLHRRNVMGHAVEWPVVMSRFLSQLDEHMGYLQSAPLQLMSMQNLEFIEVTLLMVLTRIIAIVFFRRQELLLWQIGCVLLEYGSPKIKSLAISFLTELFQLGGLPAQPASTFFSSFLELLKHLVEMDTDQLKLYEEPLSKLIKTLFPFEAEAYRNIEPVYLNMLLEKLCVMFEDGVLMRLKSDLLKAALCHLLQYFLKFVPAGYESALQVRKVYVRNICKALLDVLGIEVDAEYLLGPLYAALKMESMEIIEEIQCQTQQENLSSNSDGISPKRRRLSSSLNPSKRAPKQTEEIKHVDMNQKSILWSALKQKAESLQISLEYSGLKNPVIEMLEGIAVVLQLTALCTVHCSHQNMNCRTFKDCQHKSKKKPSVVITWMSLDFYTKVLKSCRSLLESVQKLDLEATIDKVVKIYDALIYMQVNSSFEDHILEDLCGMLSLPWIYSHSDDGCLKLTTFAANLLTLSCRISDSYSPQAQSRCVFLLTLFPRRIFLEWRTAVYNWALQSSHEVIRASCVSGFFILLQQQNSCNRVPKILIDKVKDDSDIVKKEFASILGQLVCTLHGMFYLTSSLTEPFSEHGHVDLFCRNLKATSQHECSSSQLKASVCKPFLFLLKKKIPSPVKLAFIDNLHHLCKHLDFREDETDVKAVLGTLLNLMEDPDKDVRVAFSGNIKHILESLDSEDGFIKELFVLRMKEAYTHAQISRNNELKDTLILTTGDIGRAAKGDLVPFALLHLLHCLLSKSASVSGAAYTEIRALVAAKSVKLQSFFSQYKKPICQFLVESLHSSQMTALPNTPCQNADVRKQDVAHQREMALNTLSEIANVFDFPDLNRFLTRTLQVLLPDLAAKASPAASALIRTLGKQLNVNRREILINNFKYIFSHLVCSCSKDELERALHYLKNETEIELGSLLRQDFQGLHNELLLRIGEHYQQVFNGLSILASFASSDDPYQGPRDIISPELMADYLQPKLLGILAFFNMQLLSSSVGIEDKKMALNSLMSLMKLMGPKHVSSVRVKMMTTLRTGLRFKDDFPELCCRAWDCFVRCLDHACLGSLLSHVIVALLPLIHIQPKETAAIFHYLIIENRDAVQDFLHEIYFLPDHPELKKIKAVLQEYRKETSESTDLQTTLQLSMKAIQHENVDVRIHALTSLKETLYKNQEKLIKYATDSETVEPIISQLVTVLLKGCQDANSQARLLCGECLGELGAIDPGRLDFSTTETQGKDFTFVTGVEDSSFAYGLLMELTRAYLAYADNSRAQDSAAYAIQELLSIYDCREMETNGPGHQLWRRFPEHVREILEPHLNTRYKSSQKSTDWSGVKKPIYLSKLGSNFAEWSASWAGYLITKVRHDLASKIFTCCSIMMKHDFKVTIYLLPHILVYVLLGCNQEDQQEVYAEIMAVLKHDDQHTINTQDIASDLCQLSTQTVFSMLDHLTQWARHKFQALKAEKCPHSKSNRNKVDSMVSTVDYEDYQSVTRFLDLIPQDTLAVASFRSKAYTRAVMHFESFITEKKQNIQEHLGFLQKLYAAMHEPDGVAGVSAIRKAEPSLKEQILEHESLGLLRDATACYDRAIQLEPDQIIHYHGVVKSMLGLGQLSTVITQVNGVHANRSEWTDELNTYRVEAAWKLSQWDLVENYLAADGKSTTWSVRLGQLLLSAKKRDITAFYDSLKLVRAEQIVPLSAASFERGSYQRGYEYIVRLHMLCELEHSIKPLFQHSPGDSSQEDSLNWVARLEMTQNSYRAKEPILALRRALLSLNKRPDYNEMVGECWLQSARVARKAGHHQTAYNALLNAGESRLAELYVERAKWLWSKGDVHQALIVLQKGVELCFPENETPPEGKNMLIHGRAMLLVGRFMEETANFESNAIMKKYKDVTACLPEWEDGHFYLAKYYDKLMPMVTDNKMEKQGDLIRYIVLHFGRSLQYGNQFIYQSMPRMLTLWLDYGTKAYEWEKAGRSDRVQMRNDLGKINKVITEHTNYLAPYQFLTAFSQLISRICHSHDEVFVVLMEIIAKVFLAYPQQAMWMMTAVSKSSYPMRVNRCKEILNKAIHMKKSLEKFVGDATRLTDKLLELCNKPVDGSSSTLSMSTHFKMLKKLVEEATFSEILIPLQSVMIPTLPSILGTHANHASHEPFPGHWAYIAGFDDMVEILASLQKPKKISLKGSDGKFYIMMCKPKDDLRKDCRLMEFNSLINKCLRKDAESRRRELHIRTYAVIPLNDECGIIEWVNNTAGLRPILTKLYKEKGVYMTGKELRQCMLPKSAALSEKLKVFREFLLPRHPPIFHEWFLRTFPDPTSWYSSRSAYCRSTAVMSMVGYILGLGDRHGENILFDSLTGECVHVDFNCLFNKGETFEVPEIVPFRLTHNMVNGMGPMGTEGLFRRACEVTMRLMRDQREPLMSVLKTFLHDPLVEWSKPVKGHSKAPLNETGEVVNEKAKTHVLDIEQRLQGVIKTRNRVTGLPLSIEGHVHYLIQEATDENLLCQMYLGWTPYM
UCHL1: Ubiquitin carboxyl-terminal hydrolase isozyme L1 (UCHL1, Homo sapiens, UniProt P09936)
Sequence of UniProt P09936 (whole entry, looked up): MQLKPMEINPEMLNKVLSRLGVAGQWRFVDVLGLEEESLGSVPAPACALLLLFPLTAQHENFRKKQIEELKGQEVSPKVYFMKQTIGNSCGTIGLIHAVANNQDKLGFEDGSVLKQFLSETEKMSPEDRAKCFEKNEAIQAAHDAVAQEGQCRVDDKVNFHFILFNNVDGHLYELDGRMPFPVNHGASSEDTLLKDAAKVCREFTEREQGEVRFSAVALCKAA

SMILES | target | assay | system | setting | scale | measurement | value
COc1cc(Cl)c(C(=O)N[C@@H](CN[C@H]2CC[C@@H](N)CC2)Cc2ccc(C#N)cc2)cc1-c1ccc(CN[C@H](C)c2ccc(C)cc2)o1 | ATR | enzyme activity, KinaseProfiler panel | – | 1 µM | – | remaining activity | 104%
CC(Cl)C(=O)N1CCCN(C(=O)c2cc(Cl)cn2C)CC1 (centres unmarked) | UCHL1 | covalent, intact protein LC-MS | – | 12.5 µM | – | labelling | 8.55%
COc1cc(-c2cncc3c2CN(C)Cc2cc(N4CCNCC4)ccc2-3)cc(OC)c1OC | ATR | enzyme activity | – | 1 µM, with: 10 µM ATP | relative to: DMSO | remaining activity | 93%
CCN1CCN(Cc2ccc(NC(=O)c3ccc(C)c(/C=C/c4cnc5[nH]ccc5c4OC)c3)cc2C(F)(F)F)CC1 | ATR | – | A-375 | 0.5 µM | – | inhibition | -16.3%
COc1ccc2oc(-c3ccc4nc(N)oc4c3)c/c(=N\c3ccccc3NC(=O)CCN)c2c1 | ATR | kinase activity | – | 1 µM | relative to: untreated control | remaining activity | 101%
Cc1ccc(NC(=O)c2ccc(C)c(C(F)(F)F)c2)cc1C#Cc1nn(C2CCC(O)CC2)c2ncnc(N)c12 (centres unmarked) | ATR | enzyme activity | – | 10 µM, with: ATP 10 µM | – | remaining activity | 94%
Cc1cnc(NC2CCOCC2)nc1-n1cnc(C(=O)NC(CN)c2cc(F)cc(Cl)c2)c1 (centres unmarked) | ATR | radiometric | – | 1 µM | – | remaining activity | 107%
N#CC(=Cc1ccc([N+](=O)[O-])c(Cl)c1)C(=O)NC1CCCCC1 | UCHL1 | covalent, intact protein LC-MS | – | 12.5 µM | – | labelling | 16.7%
Cc1cc(NC(=O)c2cccc3cc(-c4cccc5[nH]nc(N)c45)ccc23)ccc1F | ATR | enzyme activity, kinase profiling panel | – | 0.1 µM | – | remaining activity | 100%
Cc1ccc(C(=O)NCc2ccsc2)cc1C#Cc1cn(C(C)C)c2ncnc(N)c12 | ATR | kinase activity | – | 1 µM, with: ATP at Km | – | remaining activity | 101%
CC[C@@H]1[C@H](F)C(=O)N[C@@H]1COc1nccc2cc(C(N)=O)c(OC)cc12 | ATR | ATP-site probe binding, ActivX profiling | THP-1 cell lysate | 0.01 mM | – | inhibition | 14.9%

Some of these lines once more:
SMILES | target | assay | system | setting | scale | measurement | value
COc1cc(Cl)c(C(=O)N[C@@H](CN[C@H]2CC[C@@H](N)CC2)Cc2ccc(C#N)cc2)cc1-c1ccc(CN[C@H](C)c2ccc(C)cc2)o1 | ATR | enzyme activity, KinaseProfiler panel | – | 1 µM | – | remaining activity | 104%
Cc1cnc(NC2CCOCC2)nc1-n1cnc(C(=O)NC(CN)c2cc(F)cc(Cl)c2)c1 (centres unmarked) | ATR | radiometric | – | 1 µM | – | remaining activity | 107%
